Published values pooled from the literature.
Protocols differ between the studies behind these lines. Numbers after ± are the reported error.
Cell line: MCF7

For CC(=O)c1c(C)c2cnc(Nc3ccc(N4CCNCC4)cn3)nc2n(C2CCCC2)c1=O, “time to cell cycle re-entry” read ≤ 48 h (measured: phospho-pRb; up to 3.16 µM).
O=C(CC1Sc2ccccc2NC1=O)c1ccc(Cl)cc1 (centres unmarked): “S phase cells” 22.7% (propidium iodide flow cytometry; 1.29 µM, 24 h).
With COc1c(C)c(C)c2c(c1C)CCC(C)(C(=O)NN=C1C(=O)Nc3ccc(Br)cc31)O2 (centres unmarked) the GI50 was 34700 nM (cell growth or viability, SRB; 48 h).
O=C(CN1CCN(c2ccc([N+](=O)[O-])cc2)CC1)Nc1nc2ccccc2s1 gave an inhibition of 35% (cell growth or viability, MTT; 100 µM, 72 h).
CCCCCCCCCCCCCCCC(=O)N[C@@H](CC(N)=O)C(=O)N[C@@H](CO)C(=O)N[C@@H](CCCNC(=N)N)C(=O)N[C@@H](CC(C)C)C(=O)NCC(=O)N[C@@H](CC(N)=O)C(=O)NCC(=O)N[C@H](C(=O)N[C@@H](CC(C)C)C(=O)N[C@@H](Cc1ccc(O)cc1)C(N)=O)C(C)C gave a TGI of 1500 ± 100 nM (48 h, 1% FBS).
C/C(=N\N=C1/NC(=O)/C(=C\c2ccc(Cl)cc2)S1)c1ccccn1 gave an inhibition of > 70% (cell growth, SRB; 100 µg/mL, 48 h).
COc1cc(-c2noc(-c3cccs3)c2C(F)(F)F)cc(OC)c1OC — result for “cells in S-phase”: 1.5% (PI flow cytometry; IC50, 48 h).
For O=C(CN1CCN(CC(=O)Nc2nc3ccccc3s2)CC1)Nc1nc2ccccc2s1, the inhibition was 5.23% (cell growth or viability, MTT; 100 µM, 72 h).
The TGI of CCCCCCCCCCCCCCCC(=O)N[C@@H](CC(N)=O)C(=O)N[C@@H](CC(N)=O)C(=O)N[C@@H](CO)C(=O)N[C@@H](CCCNC(=N)N)C(=O)N[C@@H](CC(C)C)C(=O)NCC(=O)N[C@@H](CC(N)=O)C(=O)NCC(=O)N[C@H](C(=O)N[C@@H](CC(C)C)C(=O)N[C@@H](Cc1ccc(O)cc1)C(N)=O)C(C)C is reported as 1500 ± 50 nM (48 h, 1% FBS).
C#C[C@@]1(O)[C@@H](CO)O[C@@H](n2cc(Cl)c3c(N)ncnc32)[C@@H]1O has a GI50 of 27 nM (cell growth or viability, SRB; 48 h).
For Cc1c(C)c2c(c(C)c1O)CCC(C)(C(=O)NN=C1C(=O)Nc3ccccc31)O2 (centres unmarked), the GI50 was 37100 nM (cell growth or viability, SRB; 48 h).
With CS(=O)(=O)N1CCN(Cc2cc3nc(-c4cccc5[nH]ncc45)nc(N4CCOCC4)c3s2)CC1 the viability decrease was ≥ 50% (sulforhodamine B; 1 to 2 µM, 3-6 h exposure, washout, read 120 h).
The inhibition of CCN1C(=O)CS/C1=N/N=C(\C)c1ccccn1 is reported as 64% (cell growth or viability, SRB; 100 µg/mL, 48 h).
With Cc1c(C)c2c(c(C)c1O)CCC(C)(C(=O)NN=C1C(=O)Nc3ccc(Br)cc31)O2 (centres unmarked) the GI50 was 57300 nM (cell growth or viability, SRB; 48 h).
CCN1C(=O)C(C(C)=O)S/C1=N/N=C(\C)c1ccccn1 (centres unmarked) has an inhibition of 63.2% (cell growth or viability, SRB; 100 µg/mL, 48 h).
For Cc1c(C)c2c(c(C)c1OCc1ccccc1)CCC(C)(C(=O)NN=C1C(=O)Nc3ccc(F)cc31)O2 (centres unmarked), the GI50 was 64100 nM (cell growth or viability, SRB; 48 h).
The inhibition of O=C(CNc1ccc(I)cc1)Nc1nc2ccccc2s1 is reported as 30.8% (cell growth or viability, MTT; 100 µM, 72 h).
The GI50 of Cc1c(C)c2c(c(C)c1OCc1ccccc1)CCC(C)(C(=O)NN=C1C(=O)Nc3ccc(Cl)cc31)O2 (centres unmarked) is reported as > 100000 nM (cell growth or viability, SRB; 48 h).
With `insulin icodec` the EC50 was 4860 nM (glycogen synthesis, agonist, [14C]glucose incorporation; 0% HSA).
For CCCCCCCCCCCCCCCC(=O)N[C@@H](CCCNC(=N)N)C(=O)N[C@@H](CCCCN)C(=O)N[C@@H](CCCNC(=N)N)C(=O)N[C@@H](CC(N)=O)C(=O)N[C@@H](CC(N)=O)C(=O)N[C@@H](CO)C(=O)N[C@@H](CCCNC(=N)N)C(=O)N[C@@H](CC(C)C)C(=O)NCC(=O)N[C@@H](CC(N)=O)C(=O)NCC(=O)N[C@H](C(=O)N[C@@H](CC(C)C)C(=O)N[C@@H](Cc1ccc(O)cc1)C(=O)N[C@@H](C)C(=O)N[C@@H](CO)C(=O)N[C@H](C(=O)N[C@@H](CC(N)=O)C(N)=O)C(C)C)C(C)C, the TGI was 2700 ± 300 nM (48 h, 1% FBS).
The inhibition of O=C(CN1CCN(c2ccccn2)CC1)Nc1nc2ccccc2s1 is reported as 53.1% (cell growth or viability, MTT; 100 µM, 72 h).
CCn1c(C)c(C(C)=O)s/c1=N/N=C(\C)c1ccccn1 gave an inhibition of > 70% (cell growth, SRB; 100 µg/mL, 48 h).
The apoptotic cells of CCOC(=O)c1ccc(NC(=O)C2(OC(=O)c3ccc(NS(=O)(=O)c4ccccc4)cc3)CCCCC2)cc1 is reported as 58.3% (Annexin V/PI flow cytometry; IC50 concentration, 72 h).
With COc1c(C)c(C)c2c(c1C)CCC(C)(C(=O)NN=C1C(=O)Nc3ccccc31)O2 (centres unmarked) the GI50 was 45100 nM (cell growth or viability, SRB; 48 h).
For O=C(CN1CCOCC1)Nc1nc2ccccc2s1, the inhibition was 2.74% (cell growth or viability, MTT; 100 µM, 72 h).
For NS(=O)(=O)c1ccc(NC(=O)CNNc2nc3ccccc3c(=O)n2-c2ccccc2)cc1, the necrotic cells was 3.05% (annexin V/PI staining; 2.5 µM, 24 h).
NS(=O)(=O)c1ccc(NCC(=O)Nc2nc3ccccc3s2)cc1 has an inhibition of -8.74% (cell growth or viability, MTT; 100 µM, 72 h).
COc1c(C)c(C)c2c(c1C)CCC(C)(C(=O)NN=C1C(=O)Nc3ccc(F)cc31)O2 (centres unmarked) has a GI50 of > 100000 nM (cell growth or viability, SRB; 48 h).
The EC50 of `insulin human` is reported as 2.8 nM (DNA synthesis, agonist, 3H-thymidine incorporation; HSA 0%).
With C[C@H]1c2cccc(O)c2C(=O)C2=C(O)[C@]3(O)C(=O)C(C(N)=O)=C(O)[C@@H](N(C)C)[C@@H]3[C@@H](O)[C@@H]21 the apoptotic cells was 97.4% (caspase-3/7 flow cytometry, measured: early plus late apoptosis; IC50, 24 h).
For CCCCCCCCCCCCCCCC(=O)N[C@@H](CCCCN)C(=O)N[C@@H](CCCNC(=N)N)C(=O)N[C@@H](CC(N)=O)C(=O)N[C@@H](CC(N)=O)C(=O)N[C@@H](CO)C(=O)N[C@@H](CCCNC(=N)N)C(=O)N[C@@H](CC(C)C)C(=O)NCC(=O)N[C@@H](CC(N)=O)C(=O)NCC(=O)N[C@H](C(=O)N[C@@H](CC(C)C)C(=O)N[C@@H](Cc1ccc(O)cc1)C(=O)N[C@@H](C)C(=O)N[C@@H](CO)C(=O)N[C@H](C(=O)N[C@@H](CC(N)=O)C(N)=O)C(C)C)C(C)C, the TGI was 500 ± 80 nM (48 h, 1% FBS).
With O=C(CN1CCN(CC(=O)Nc2nc3ccccc3s2)CC1)Nc1ccc([N+](=O)[O-])cc1 the inhibition was 85% (cell growth or viability, MTT; 100 µM, 72 h).
The inhibition of CC(=O)c1s/c(=N/N=C(\C)c2ccccn2)[nH]c1C is reported as 63.3% (cell growth or viability, SRB; 100 µg/mL, 48 h).
For CCCCCCCCCCCCCCCC(=O)N[C@@H](CCCNC(=N)N)C(=O)N[C@@H](CC(N)=O)C(=O)N[C@@H](CC(N)=O)C(=O)N[C@@H](CO)C(=O)N[C@@H](CCCNC(=N)N)C(=O)N[C@@H](CC(C)C)C(=O)NCC(=O)N[C@@H](CC(N)=O)C(=O)NCC(=O)N[C@H](C(=O)N[C@@H](CC(C)C)C(=O)N[C@@H](Cc1ccc(O)cc1)C(=O)N[C@@H](C)C(=O)N[C@@H](CO)C(=O)N[C@H](C(=O)N[C@@H](CC(N)=O)C(N)=O)C(C)C)C(C)C, the TGI was 400 ± 20 nM (48 h, 1% FBS).
CC(=NNC(=S)NN=C(C(=NO)c1ccccc1)c1ccccc1)c1ccccc1C — result for “relative protein level”: 1.56 ± 0.06 (Western blot, measured: HO-1; IC50 concentration, 24 h; reference: untreated).
With C/C(=N\NC(N)=S)c1ccccn1 the inhibition was 66.2% (cell growth or viability, SRB; 100 µg/mL, 48 h).
The TGI of CCCCCCCCCCCCCCCC(=O)N[C@@H](CCCCN)C(=O)N[C@@H](CCCNC(=N)N)C(=O)N[C@@H](CC(N)=O)C(=O)N[C@@H](CC(N)=O)C(=O)N[C@@H](CO)C(=O)N[C@@H](CCCNC(=N)N)C(=O)N[C@@H](CC(C)C)C(=O)NCC(=O)N[C@@H](CC(N)=O)C(=O)NCC(=O)N[C@H](C(=O)N[C@@H](CC(C)C)C(=O)N[C@@H](Cc1ccc(O)cc1)C(N)=O)C(C)C is reported as 2500 ± 500 nM (48 h, 1% FBS).
With CCN1C(=O)/C(=C\c2ccc(OC)c(OC)c2)S/C1=N/N=C(\C)c1ccccn1 the inhibition was 61% (cell growth or viability, SRB; 100 µg/mL, 48 h).
COC(=O)c1ccc(NC(=O)CNNc2nc3ccccc3c(=O)n2-c2ccccc2)cc1 has an apoptotic cells of 3.47% (annexin V/PI staining; 2.5 µM, 24 h, Early apoptosis).
For CCN1C(=O)/C(=C\c2ccc(OC)cc2)S/C1=N/N=C(\C)c1ccccn1, the inhibition was 65.4% (cell growth or viability, SRB; 100 µg/mL, 48 h).
CC(C)(C)c1ccc(CN2CCN(C(c3ccccc3)c3ccc(Cl)cc3)CC2)cc1 (centres unmarked) has an EC50 of 19000 nM (72 h).
With C#C[C@@]1(O)[C@@H](CO)O[C@@H](n2cc(Br)c3c(N)ncnc32)[C@@H]1O the GI50 was 23 nM (cell growth or viability, SRB; 48 h).
With Cc1c(C)c2c(c(C)c1O)CCC(C)(C(=O)NN=C1C(=O)Nc3ccc(Cl)cc31)O2 (centres unmarked) the GI50 was 76400 nM (cell growth or viability, SRB; 48 h).
The TGI of CCCCCCCCCCCCCCCC(=O)N[C@H](C(=O)N[C@@H](Cc1ccccc1)C(=O)N[C@@H](Cc1c[nH]cn1)C(=O)N[C@@H](CCCNC(=N)N)C(=O)N[C@@H](CCCCN)C(=O)N[C@@H](CCCNC(=N)N)C(=O)N[C@@H](CC(N)=O)C(=O)N[C@@H](CC(N)=O)C(=O)N[C@@H](CO)C(=O)N[C@@H](CCCNC(=N)N)C(=O)N[C@@H](CC(C)C)C(=O)NCC(=O)N[C@@H](CC(N)=O)C(=O)NCC(=O)N[C@H](C(=O)N[C@@H](CC(C)C)C(=O)N[C@@H](Cc1ccc(O)cc1)C(=O)N[C@@H](C)C(=O)N[C@@H](CO)C(=O)N[C@H](C(=O)N[C@@H](CC(N)=O)C(N)=O)C(C)C)C(C)C)C(C)C is reported as 1100 ± 100 nM (48 h, 1% FBS).

Some of these lines once more:
With COc1c(C)c(C)c2c(c1C)CCC(C)(C(=O)NN=C1C(=O)Nc3ccc(Br)cc31)O2 (centres unmarked) the GI50 was 34700 nM (cell growth or viability, SRB; 48 h).
O=C(CN1CCN(c2ccc([N+](=O)[O-])cc2)CC1)Nc1nc2ccccc2s1 gave an inhibition of 35% (cell growth or viability, MTT; 100 µM, 72 h).
CCCCCCCCCCCCCCCC(=O)N[C@@H](CC(N)=O)C(=O)N[C@@H](CO)C(=O)N[C@@H](CCCNC(=N)N)C(=O)N[C@@H](CC(C)C)C(=O)NCC(=O)N[C@@H](CC(N)=O)C(=O)NCC(=O)N[C@H](C(=O)N[C@@H](CC(C)C)C(=O)N[C@@H](Cc1ccc(O)cc1)C(N)=O)C(C)C gave a TGI of 1500 ± 100 nM (48 h, 1% FBS).
C/C(=N\N=C1/NC(=O)/C(=C\c2ccc(Cl)cc2)S1)c1ccccn1 gave an inhibition of > 70% (cell growth, SRB; 100 µg/mL, 48 h).
COc1cc(-c2noc(-c3cccs3)c2C(F)(F)F)cc(OC)c1OC — result for “cells in S-phase”: 1.5% (PI flow cytometry; IC50, 48 h).
For O=C(CN1CCN(CC(=O)Nc2nc3ccccc3s2)CC1)Nc1nc2ccccc2s1, the inhibition was 5.23% (cell growth or viability, MTT; 100 µM, 72 h).
